Assay results collected from several papers.
Each numbered part is a random draw from the data of one study; scales do not carry over between parts. Changes are numbered by the printed parent chain.

Block 1
Target: Phosphate system positive regulatory protein PHO4, full length, GST-tagged (PHO4, Saccharomyces cerevisiae, UniProt P07270, residues 1-312)
Method: competition protein-binding microarray
Form: double-stranded DNA, one strand shown
Sample: in vitro
Tested at: 2 µM
Setting: whole 60-bp probe, lowest competitor level
Together with: Cbf1 competitor, 0.05 µM
Reading: higher = stronger binding
Measurement: fluorescence intensity
Construct (chain): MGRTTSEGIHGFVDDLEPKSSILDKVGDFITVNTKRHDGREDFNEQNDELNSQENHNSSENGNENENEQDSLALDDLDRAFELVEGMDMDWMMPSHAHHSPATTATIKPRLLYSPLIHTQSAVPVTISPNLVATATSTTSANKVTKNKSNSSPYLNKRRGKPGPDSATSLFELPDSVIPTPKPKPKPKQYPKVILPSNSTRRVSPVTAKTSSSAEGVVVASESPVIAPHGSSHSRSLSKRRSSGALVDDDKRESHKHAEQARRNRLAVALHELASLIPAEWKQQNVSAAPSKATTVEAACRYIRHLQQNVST
CTTCTGTAAATTTTTCACGTGCTTTGACGCGCCCCGGTCTTGATTCGCTTGACGCTGCTG: 14500 a.u.
GATAACCTCCTTAGCACCGTGATTGTTTAATGTGTCGTCTTGATTCGCTTGACGCTGCTG: 6290 a.u.
CGGGGTTAAGTTTGGTCAGTGGGTGGCTTGCAGCAGGTCTTGATTCGCTTGACGCTGCTG: 4320 a.u.
GTCTTGTCTCATTGTCACCTGACTTTCCCCACTTCAGTCTTGATTCGCTTGACGCTGCTG: 4380 a.u.

Block 2
Target: CCNB3, cyclin fold, Cln2 fusion (human)
Method: yeast growth competition, sequencing
Sample: yeast
Setting: strong parent motif
Relative to: not given
Reading: higher = stronger binding
Measurement: normalised enrichment score
Starting sequence: BRCA2 docking peptide (human); PSIKRNLLNEFDR; partner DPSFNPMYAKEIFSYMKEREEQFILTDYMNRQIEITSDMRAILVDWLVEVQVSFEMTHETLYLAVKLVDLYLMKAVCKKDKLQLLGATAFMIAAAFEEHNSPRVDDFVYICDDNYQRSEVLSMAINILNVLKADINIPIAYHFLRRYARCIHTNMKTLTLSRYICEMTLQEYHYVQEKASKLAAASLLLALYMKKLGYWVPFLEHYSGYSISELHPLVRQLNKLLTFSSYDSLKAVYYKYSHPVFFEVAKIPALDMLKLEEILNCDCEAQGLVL
KSIKRNLLNEFDR [P1K]: 1.39
PSIKDNLLNEFDR [R5D]: 0.719
PSIKKNLLNEFDR [R5K]: 0.295
PSIKRNLLGEFDR [N9G]: 0.695

Block 3
Target: TAR DNA-binding protein 43, full length, His tag (TARDBP, Homo sapiens, UniProt Q13148, residues 1-414)
Method: RNA Bind-n-Seq
Form: RNA
Sample: in vitro
Tested at: 20 nM
Setting: 6-mer, flanks averaged, single round
Together with: 150 mM KCl
Relative to: input library
Reading: higher = stronger binding
Measurement: 6-mer enrichment (R)
AUCAGU: 0.621
CGCUUA: 0.593
AAUAUA: 0.705
ACUCGU: 0.575
GAGAAG: 1.74
CCGGCA: 0.871

Further values, each from its own experiment
PhoQ, residues 284 288 289 292 302 303 TTSMTC  fold induction (PhoP, residues 12 14 15 18 19 VQGLL (Escherichia coli, UniProt P23836); Sort-seq, item: YFP reporter; E. coli; PhoQ-PhoP variant library, together with: 10 µM Mg2+; relative to: high Mg2+ state, higher = stronger signaling): 9.58

A few entries again (block 3):
ACUCGU: 0.575
